Results pooled from the literature.
Several values in a cell are separate wells, animals, samples, runs or records.
Target: Tyrosine-protein kinase receptor UFO (AXL, Homo sapiens, UniProt P30530)

| Compound | assay | setting | how to read | quantity | result |
| --- | --- | --- | --- | --- | --- |
| NC(=O)[C@@H](O)C[C@H]1CCc2sc3ncnc(O[C@H]4CC[C@H](N5CCOCC5)CC4)c3c21 | enzyme activity, inhibitor | 10 µM |  | inhibition | 15% |
| Cc1[nH]nc2c1N=C(c1ccccc1Cl)c1cnc(N3CCOCC3)cc1N2 | enzyme activity, inhibitor | 0.5 µM |  | inhibition | 5.1% |
| Nc1ncc2c(n1)-c1c([nH]c3ccc(C4=CCOCC4)cc13)CCC2 | binding, competition with immobilised ligand | 1 µM |  | remaining binding | 72% |
| COc1c(OCCCN2CCOCC2)ccc2c1N=C(NC(=O)c1cnc(N)nc1)N1CCN=C21 | kinase activity, inhibitor | 1 µM | baseline: untreated control | remaining activity | 91% |
| C[C@]1(O)CCCN(c2nc(Nc3ccc(S(=O)(=O)N[C@H]4CC[C@H](CN5CCN(c6ccc(C7CCC(=O)NC7=O)cc6F)CC5)CC4)cc3)ncc2C(F)(F)F)C1 (stereo partly shown) | binding, competition with immobilised ligand | 1 µM |  | remaining binding | 0.4% |
| CNC(=O)C1CCN(c2cc(C)c(F)cc2NC(=O)c2ccc(-c3cc(O)ccc3C)c(C)c2)CC1 | binding, competition with immobilised ligand | 1 µM |  | remaining binding | 65% |
| Cc1cccc(O[C@H]2CCC[C@@H](C(C)CNCc3ccncc3)C2)c1 (relative stereo) | cell-free assay | 10 µM |  | inhibition | -3% |
| CNC(=O)C[C@H](Cc1ccc(C#N)cc1)NC(=O)c1cc(-c2ccc(CN[C@H](C)c3ccc(C)cc3)o2)ccc1Cl | enzyme activity, inhibitor | 1 µM |  | activity vs control | 96% |
| CN1CCN(Cc2ccc(NC(=O)c3cccc(C#Cc4cnc(N)c5ncccc45)c3)cc2C(F)(F)F)CC1 | cell-free assay, competition with immobilised ligand | 0.5 µM |  | remaining binding | 0.4% |
| Nc1ncc(-c2cc(-c3cnn(CC(F)(F)F)c3)ncc2F)nc1C(=O)NC1CNCC(F)C1 (stereo not shown) | enzyme activity | 1 µM | baseline: DMSO control | remaining activity | 48.5% |
| COc1ccc(NC(=O)Nc2ccc3c(c2)C(=O)N(C(C)CO)CC(C)C(CN(C)Cc2ccc4c(c2)OCO4)O3)cc1 (stereo not shown) | binding, competition with immobilised ligand | 10 µM |  | remaining binding | 84% |
| Cc1cnc2nc1Nc1cccc(c1)COC/C=C/COCc1cc(ccc1OCCN1CCOCC1)N2 | binding | 0.1 µM |  | remaining binding | 44% |
| COc1cc(Nc2nc(C)cc(-c3cnn4nc(OC)ccc34)n2)cc(C(F)(F)F)c1 | inhibitor | 1 µM | baseline: control | remaining activity | 100% |
| C=CC(=O)N1CCc2ccc(-n3c(=O)ccc4cnc5ccc(-c6cnn(C)c6)cc5c43)cc21 | KINOMEscan | 1 µM | baseline: DMSO control | remaining binding | 100% |
| COc1c(Cl)cccc1Nc1c(-c2ccncc2C#C[C@@]2(C)CCCN2C(=O)/C=C/CN(C)C)[nH]c2c1C(=O)NCC2 | binding, competition with immobilised ligand | 3 µM |  | remaining binding | 100% |
| O=C=[N][Ru-4]123([n]4c5ccc(O)cc5c5c6c(c7cc(F)c[n+]1c7c54)C(=O)NC6=O)[S+]1CC[S+]2CC[S+]3CC1 (stereo not shown) | enzyme activity | 100 nM, human enzyme, added: 10 µM ATP | baseline: untreated | remaining activity | 100% |
| C=CC(=O)Nc1cccc(-c2cnc3[nH]cc(C(=O)NC(C)(C)C)c3n2)c1 | enzyme activity, inhibitor | 0.1 µM |  | inhibition | 27% |
| C[C@H]1CN(C(=O)c2cn(-c3ccnc(N)n3)c3cc(C#CC4(O)CCCCC4)ccc23)CCN1 | enzyme activity, inhibitor, FRET | 1 µM |  | inhibition | -2% |
| COCC12C(=O)NC3C4(C(OC)CC1O)C1CC5(O)C(OC)C(O)C(OC(C)=O)(C1C5OC(=O)c1ccccc1)C3(O)C(OC)C24 (stereo not shown) | kinase activity, inhibitor, ProQinase kinase profiling | 25 µM | baseline: control | remaining activity | 103% and 107% |
